Measured values of several laboratories.
Every numbered part comes from another study and shows a few of its results, in no order. Substitutions count along the parent as printed.

Study 1 — technique: RNA Bind-n-Seq; form: RNA; sample: in vitro; tested at: 1 µM; setting: whole 134-nt RNA, ends assumed; with: 150 mM KCl; relative to: input library; direction: higher = stronger binding
Target: Ras GTPase-activating protein-binding protein 1, C-terminal RGG region (G3BP1, Homo sapiens, UniProt Q13283)
Sequence of UniProt Q13283 (whole entry, looked up): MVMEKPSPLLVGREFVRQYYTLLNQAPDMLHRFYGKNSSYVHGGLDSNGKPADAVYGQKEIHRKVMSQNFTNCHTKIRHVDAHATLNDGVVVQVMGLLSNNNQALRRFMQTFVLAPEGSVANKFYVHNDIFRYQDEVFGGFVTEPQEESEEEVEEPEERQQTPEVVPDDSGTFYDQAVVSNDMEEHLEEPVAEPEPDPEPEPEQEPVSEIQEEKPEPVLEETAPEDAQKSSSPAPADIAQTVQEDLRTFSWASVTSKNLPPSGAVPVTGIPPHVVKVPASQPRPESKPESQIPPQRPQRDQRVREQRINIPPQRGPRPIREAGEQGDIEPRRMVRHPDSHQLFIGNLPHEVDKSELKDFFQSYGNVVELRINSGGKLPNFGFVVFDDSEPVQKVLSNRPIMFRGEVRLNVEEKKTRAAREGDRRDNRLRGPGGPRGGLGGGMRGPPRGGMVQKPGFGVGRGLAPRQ
Strand | log2 enrichment
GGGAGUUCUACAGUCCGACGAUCUUGGAUGAAGAUGGCAAAGUCCUGACCCCGGAGGAGCUGCUCUACCGGGUAAGGGGGCCUCCUCUGCCAGACCCUAGAGACCUCUCUGGGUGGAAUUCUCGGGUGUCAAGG | -1.63
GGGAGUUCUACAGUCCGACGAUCGCAGGAAGUAAAAACAAAUGGAAAUUCUUCGGAUAGUGGCAGGGGUGGGGGUUGCUAAGGAAAGGGUGGGAUGGGAGUGGGUAAAGAGUUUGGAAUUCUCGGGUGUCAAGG | 1.62
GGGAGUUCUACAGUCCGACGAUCCAAGUCCUGUGCUACACAUCGUAUGUACCGAAUCGGAAAGGGAAAGGGGAAAGGGAAAGUAUUAUGUUACGCCGUUCGGAUCUGCACUUCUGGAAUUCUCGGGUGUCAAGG | -0.97
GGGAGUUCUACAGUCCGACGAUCUGGCCCUGGUGGCAUGCGGGGAGGAAGAGGUGGUCUCAUGGAUCGUGGUGGUCCCGGUGGAAUGUUCAGAGGUGGCCGUGGUGGAGACAGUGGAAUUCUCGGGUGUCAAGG | 1.68
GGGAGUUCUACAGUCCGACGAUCCCUGUGCUACACAUCGUAUGUACCGAAUCGGUUUUUUUGGUUUUUUUGGGGUUUUUUUGGGAAAGUAUUAUGUUACGCCGUUCGGAUCUGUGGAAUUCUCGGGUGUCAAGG | -1.64
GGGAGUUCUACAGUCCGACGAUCGCAGGAAGUAAAAACAAAUGGAAAUGCUUCGGAUAGUGGCAGGGGUGGGGGUUGCUAAGGAAAGGGUGAAAUGGGAGUGGGUAAAGAGUUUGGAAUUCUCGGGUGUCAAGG | 1.63
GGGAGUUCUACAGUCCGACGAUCUCCUGUGCUACACAUCGUAUGUACCGAAUCGGGUUUUUGGGGUUUUUGGGGUUUUUGGGAAAGUAUUAUGUUACGCCGUUCGGAUCUGCAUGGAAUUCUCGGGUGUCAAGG | 0.566
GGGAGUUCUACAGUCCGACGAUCUGUGCUACACAUCGUAUGUACCGAAUCGGGGUUUUUGGGGUUUUUUUGGGGAAAAAAAGGGGAAAGUAUUAUGUUACGCCGUUCGGAUCUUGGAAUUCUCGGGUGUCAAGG | 0.588

Study 2 — technique: protein-binding microarray; form: double-stranded DNA, one strand shown; sample: in vitro; tested at: not given; direction: higher = stronger binding
Target: Protein C-ets-1 (ETS1, Homo sapiens, UniProt P14921, residues 1-441, K379A, full length assumed)
Sequence of UniProt P14921 (whole entry, unmodified, looked up): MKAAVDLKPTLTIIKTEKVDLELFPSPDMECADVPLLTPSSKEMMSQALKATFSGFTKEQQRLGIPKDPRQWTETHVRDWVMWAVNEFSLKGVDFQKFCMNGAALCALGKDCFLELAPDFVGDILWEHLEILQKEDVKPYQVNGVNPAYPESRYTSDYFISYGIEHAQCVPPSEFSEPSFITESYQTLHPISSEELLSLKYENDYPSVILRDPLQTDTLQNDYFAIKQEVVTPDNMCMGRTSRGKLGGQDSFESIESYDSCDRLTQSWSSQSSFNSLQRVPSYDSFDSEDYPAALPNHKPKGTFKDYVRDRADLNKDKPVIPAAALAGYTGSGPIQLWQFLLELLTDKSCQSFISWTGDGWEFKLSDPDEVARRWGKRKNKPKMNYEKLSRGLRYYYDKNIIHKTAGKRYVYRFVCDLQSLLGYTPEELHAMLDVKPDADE
Setting: k-mer, scored over probes, only values ≥0.25
Strand | E-score
ACCGGAGA | 0.332
GTGCCGGA | 0.288
ACCCGGTC | 0.375
ATCCGGAT | 0.305
ATCTGTCG | 0.276
TCACACCA | 0.263
GCGTCGGA | 0.25
TACCGGAA | 0.484

Study 3 — technique: aptamer microarray, sandwich; form: DNA with 2'F-ANA; sample: in vitro; tested at: 200 nM; with: Cy3 exosite-II aptamer, 400 nM; direction: higher = stronger binding; strand: GGTTGGTGTGGTTGG
Target: Prothrombin, mature alpha-thrombin (F2, Homo sapiens, UniProt P00734)
Setting: whole 15-mer aptamer, many near background
Modification | mean fluorescence intensity [a.u.]
2'F-ANA at 3 4 5 6 7 8 11 12 13 | 169
2'F-ANA at 1 2 5 6 9 10 11 12 | 53.7
2'F-ANA at 2 4 9 10 11 12 13 14 15 | 151
2'F-ANA at 2 3 4 6 12 13 14 | 261
2'F-ANA at 1 2 3 4 5 8 9 10 11 12 13 14 | 45.7
2'F-ANA at 1 4 8 9 13 14 15 | 47.9
2'F-ANA at 1 2 3 5 6 8 9 11 | 79.5
2'F-ANA at 2 3 9 12 13 14 | 400

Mixed results
Starting sequence: PafA, mature enzyme, eGFP fusion (Elizabethkingia meningoseptica, UniProt Q9KJX5); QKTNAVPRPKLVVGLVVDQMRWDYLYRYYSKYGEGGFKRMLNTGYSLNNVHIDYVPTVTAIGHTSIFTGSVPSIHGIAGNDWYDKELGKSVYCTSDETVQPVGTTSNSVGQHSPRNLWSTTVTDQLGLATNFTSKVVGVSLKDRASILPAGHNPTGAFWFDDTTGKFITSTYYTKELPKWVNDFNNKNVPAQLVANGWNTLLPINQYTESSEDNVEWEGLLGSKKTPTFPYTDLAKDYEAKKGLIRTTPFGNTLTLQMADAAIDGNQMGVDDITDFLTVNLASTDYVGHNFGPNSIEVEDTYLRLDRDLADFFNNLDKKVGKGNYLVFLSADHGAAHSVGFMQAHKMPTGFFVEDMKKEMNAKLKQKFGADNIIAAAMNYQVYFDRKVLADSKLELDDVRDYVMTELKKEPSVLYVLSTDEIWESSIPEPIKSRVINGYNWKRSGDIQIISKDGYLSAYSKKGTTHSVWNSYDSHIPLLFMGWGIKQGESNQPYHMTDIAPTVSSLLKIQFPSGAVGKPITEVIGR
Variant | target | test | system | setting | scale | quantity | result
F313G | vanadate, free oxyanion | microfluidic competitive inhibition | in vitro, cell-free expressed | not given, derived from inhibition constants, unchanged parent 676 nM | lower = stronger binding | oxyanion analog dissociation constant | 0.561 µM

Some of these lines once more (study 2):
Strand | E-score
GCGTCGGA | 0.25
TACCGGAA | 0.484
